Measured values from different studies.
Lines come from different studies, so protocols differ. ± gives the spread as reported.
GRM2: Metabotropic glutamate receptor 2 (GRM2, Homo sapiens, UniProt Q14416)
Sequence of UniProt Q14416 (whole entry, looked up): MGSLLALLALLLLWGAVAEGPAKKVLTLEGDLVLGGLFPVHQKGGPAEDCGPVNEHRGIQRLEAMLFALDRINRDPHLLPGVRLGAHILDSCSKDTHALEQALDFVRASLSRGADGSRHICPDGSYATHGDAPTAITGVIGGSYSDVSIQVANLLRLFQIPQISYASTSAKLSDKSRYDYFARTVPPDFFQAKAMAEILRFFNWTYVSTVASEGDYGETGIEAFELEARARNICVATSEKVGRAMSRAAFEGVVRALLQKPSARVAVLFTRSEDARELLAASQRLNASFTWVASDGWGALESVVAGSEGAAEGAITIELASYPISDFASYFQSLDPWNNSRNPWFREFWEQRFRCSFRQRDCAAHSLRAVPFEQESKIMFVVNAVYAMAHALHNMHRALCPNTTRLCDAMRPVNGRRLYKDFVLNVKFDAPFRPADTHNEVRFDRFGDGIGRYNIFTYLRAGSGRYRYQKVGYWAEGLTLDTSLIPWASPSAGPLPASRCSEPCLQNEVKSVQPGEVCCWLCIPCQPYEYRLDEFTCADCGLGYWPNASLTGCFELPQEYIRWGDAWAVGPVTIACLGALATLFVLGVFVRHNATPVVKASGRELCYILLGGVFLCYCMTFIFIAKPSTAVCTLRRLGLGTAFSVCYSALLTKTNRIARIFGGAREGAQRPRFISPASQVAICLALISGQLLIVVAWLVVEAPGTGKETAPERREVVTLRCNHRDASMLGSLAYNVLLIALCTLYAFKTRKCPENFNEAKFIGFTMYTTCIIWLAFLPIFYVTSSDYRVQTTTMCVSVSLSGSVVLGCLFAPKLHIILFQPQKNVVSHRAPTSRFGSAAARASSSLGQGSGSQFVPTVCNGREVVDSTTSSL
MED23 with ELF3: Mediator of RNA polymerase II transcription subunit 23, with ELF3 (MED23, Homo sapiens, UniProt Q9ULK4)
Sequence of UniProt P49336 (whole entry, looked up): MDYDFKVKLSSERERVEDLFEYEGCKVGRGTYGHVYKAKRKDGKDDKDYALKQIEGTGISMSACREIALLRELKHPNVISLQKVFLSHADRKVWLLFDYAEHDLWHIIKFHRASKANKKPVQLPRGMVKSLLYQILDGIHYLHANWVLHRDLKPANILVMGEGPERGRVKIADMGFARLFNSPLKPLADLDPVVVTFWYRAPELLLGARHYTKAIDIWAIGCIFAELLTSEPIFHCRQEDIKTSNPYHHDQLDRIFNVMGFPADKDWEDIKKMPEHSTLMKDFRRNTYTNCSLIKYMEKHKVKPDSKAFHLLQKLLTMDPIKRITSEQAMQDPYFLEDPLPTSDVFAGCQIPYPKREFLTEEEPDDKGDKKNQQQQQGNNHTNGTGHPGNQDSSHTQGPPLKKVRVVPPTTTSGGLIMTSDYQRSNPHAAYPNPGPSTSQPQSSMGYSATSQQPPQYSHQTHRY
Sequence of UniProt O94925 (whole entry, looked up): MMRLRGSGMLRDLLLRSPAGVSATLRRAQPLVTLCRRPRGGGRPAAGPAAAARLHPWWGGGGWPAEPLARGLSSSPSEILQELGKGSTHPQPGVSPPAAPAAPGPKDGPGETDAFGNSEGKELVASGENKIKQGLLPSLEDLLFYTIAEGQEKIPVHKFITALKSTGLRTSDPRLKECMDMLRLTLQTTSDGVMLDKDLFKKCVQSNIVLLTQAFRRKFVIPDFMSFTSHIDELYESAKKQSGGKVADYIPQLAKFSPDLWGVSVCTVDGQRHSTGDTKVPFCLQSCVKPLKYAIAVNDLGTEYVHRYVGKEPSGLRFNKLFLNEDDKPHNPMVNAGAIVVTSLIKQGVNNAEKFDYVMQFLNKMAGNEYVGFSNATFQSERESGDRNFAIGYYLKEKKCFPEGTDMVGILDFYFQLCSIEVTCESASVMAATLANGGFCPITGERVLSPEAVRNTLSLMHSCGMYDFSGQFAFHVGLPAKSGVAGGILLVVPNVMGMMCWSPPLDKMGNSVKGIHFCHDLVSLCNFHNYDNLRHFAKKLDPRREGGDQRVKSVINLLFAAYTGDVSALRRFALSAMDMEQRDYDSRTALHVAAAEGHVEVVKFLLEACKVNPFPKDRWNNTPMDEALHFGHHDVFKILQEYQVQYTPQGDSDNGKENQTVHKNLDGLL
Sequence of UniProt Q9HC97 (whole entry, looked up): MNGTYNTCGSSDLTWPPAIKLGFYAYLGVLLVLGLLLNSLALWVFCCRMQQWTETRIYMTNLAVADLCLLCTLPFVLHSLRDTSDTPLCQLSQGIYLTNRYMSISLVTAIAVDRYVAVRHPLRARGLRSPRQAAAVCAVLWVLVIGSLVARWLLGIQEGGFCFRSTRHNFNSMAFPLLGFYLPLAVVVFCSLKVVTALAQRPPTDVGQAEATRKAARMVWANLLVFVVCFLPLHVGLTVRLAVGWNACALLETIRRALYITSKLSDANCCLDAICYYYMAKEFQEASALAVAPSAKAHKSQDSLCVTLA

Compound = Clc1c(-c2ccc(Oc3ccccc3)cc2)ccn2c(CC3CC3)nnc12; target = GRM2; test = agonist; conditions = no glutamate; measurement = Emax; result = 50%
Compound = O=[N+]([O-])c1ccc(/C=N/Nc2nnc(N/N=C/c3ccc([N+](=O)[O-])cc3)c3ccccc23)cc1; target = iron(III); test = UV-Vis titration; conditions = stoichiometry 2; measurement = binding constant; result = 1.5e+09 M⁻²
Compound = FC(F)(F)c1c(-c2ccc(N3CCNCC3)c(Cl)c2)ccn2c(CC3CC3)nnc12; target = GRM2; test = GTPγS binding, positive allosteric modulator; conditions = added: EC20 glutamate; scale = reference: control glutamate response; measurement = Emax; result = 308 ± 31%
Compound = CC(=O)NC(Cc1c[nH]c2ccccc12)C(=O)NC(CCC(=O)C=[N+]=[N-])C(=O)O (stereo not drawn); target = Glutaminase kidney isoform, mitochondrial (GLS, Homo sapiens, UniProt O94925); test = enzyme activity, inhibitor, [3H]-glutamine radiometric; conditions = concentration not given, intact compound; measurement = activity class; result = inactive
Compound = CC(=O)Nc1cc(-c2ccccc2)n[nH]1; target = crk3, with CYC6 (Leishmania mexicana, UniProt O15851); test = IMAP fluorescence polarisation; conditions = 30 µM, with L. major CYC6; measurement = inhibition; result = 17%
Compound = COc1ccc(C=CC(=O)c2ccccc2O)cc1; target = MED23 with ELF3; test = SEAP reporter gene, inhibitor; conditions = 10 µM, 12 h; measurement = inhibition; result = 90%
Compound = FC(F)(F)c1c(-c2ccc(NC3CCOCC3)c(Cl)c2)ccn2c(CC3CC3)nnc12; target = GRM2; test = GTPγS binding, agonist, radiometric; conditions = cell membranes; measurement = Emax; result = 72%
Compound = O=C1Nc2ccc(S(=O)(=O)Nc3ccccc3)cc2C1=C1CCCC1; target = Cyclin-dependent kinase 8 (CDK8, Homo sapiens, UniProt P49336); test = enzyme activity, inhibitor; conditions = 10 µM; measurement = inhibition; result = 93%
Compound = O=C(O)c1cc(O)ccc1O; target = G-protein coupled receptor 35 (GPR35, Homo sapiens, UniProt Q9HC97); test = dynamic mass redistribution, agonist; system = HT-29; measurement = maximal response; result = 309 ± 19 pm
Compound = O=C(C=Cc1ccc(O)cc1)c1ccccc1O; target = MED23 with ELF3; test = SEAP reporter gene, inhibitor; conditions = 10 µM, 12 h; measurement = inhibition; result = 50%
Compound = COc1ccc2nc3c(cc2c1)c(=O)cc(C(F)(F)F)n3-c1ccc(Cl)cc1; target = iron(III); test = UV-Vis titration; conditions = stoichiometry 1; measurement = binding constant; result = 30 M⁻¹
Compound = CCC(=O)N1N=C(c2cccc(O)c2)CC1c1ccc(Cl)cc1 (stereo not drawn); target = MED23 with ELF3; test = SEAP reporter gene, inhibitor; conditions = 10 µM, 12 h; measurement = inhibition; result = 42%
Compound = CCCCn1ccn2c(-c3ccc(NC4CCOCC4)c(Cl)c3)c(C)nc2c1=O; target = GRM2; test = agonist; conditions = no glutamate; measurement = Emax; result = 39%
Compound = COc1ccc(C=CC(=O)c2cccc(O)c2)cc1; target = MED23 with ELF3; test = SEAP reporter gene, inhibitor; conditions = 10 µM, 12 h; measurement = inhibition; result = 41%
Compound = COc1ccc(CNc2ccc(-c3ccn4c(CC5CC5)nnc4c3C(F)(F)F)cc2F)cn1; target = GRM2; test = agonist; conditions = no glutamate; measurement = Emax; result = 64 ± 1%
